Published values pooled from the literature.
Lines come from different studies, so protocols differ. Values joined by “and” are separate records of one study, mostly repeats; a detail may differ. ± gives the spread as reported.

| SMILES | cell line | assay | setting | scale | quantity | value |
| --- | --- | --- | --- | --- | --- | --- |
| CN1CC[C@@H](COc2cnc(C#N)cc2-c2ccn3nc(NC(=O)C4CC4)cc3c2)C1 | human monocyte-derived macrophages | IL-10 release, inducer | 3 h, added: LPS | – | EC50 | 0.42 µM |
| NC(Cc1ccccc1)C(=O)N1CC(=Cc2ccc(Cl)c(Cl)c2)C(=O)C(=Cc2ccc(Cl)c(Cl)c2)C1 (stereo not shown) | BRD4-HiBiT cells | BRD4 degradation rescue, inhibitor | 24 h, added: dBET6 500 nM | – | EC50 | 0.102 µM |
| Cn1ncc2cc(-c3cncc(Cl)c3N3CCC4(CCNC4=O)CC3)ccc21 | LS174T | gene expression, microarray, refers to: PFKFB4 mRNA | concentration not given, 24 h | baseline: untreated cells | log2 fold change | 2.26 |
| CCCCCCCCCCCC(=O)N[C@@H](CO)C[C@@H](O)c1cccc(CCCCCC)c1 | HeLa | CERT activity, HPLC-MS/MS lipidomics, refers to: ceramide 24:1 | 1 µM, 24 h, not cell-number normalised | – | ceramide level | 22000 pmol/sample and 15400 pmol/sample and 17300 pmol/sample |
| COc1cc(N2CCN(C(=O)C3CCCN3)CC2)ccc1Nc1ncc(Cl)c(Nc2ccccc2P(C)(C)=O)n1 (stereo not shown) | Ba/F3 EML4-ALK | flow cytometry | concentration not given, 1 h | – | late apoptotic cells | 3.24% and 2.77% and 3.28% |
| CN(C)c1ccc(-n2cc(COC(=O)[C@]3(C)C=C(C(=O)OC(C)(C)C)C(=O)CC3)nn2)cc1 | HeLa | quantitative western blot | concentration not given, 10 (unit not given), added: EGF | – | pRSK/tubulin ratio | 0.176 |
| c1ccc2c(Cc3c(-c4c[nH]c5ccccc45)[nH]c4ccccc34)c[nH]c2c1 | human monocytes | – | 5 µM | baseline: DMSO | IL-6 induction | increased |
| CCn1nccc1C1CCCN1S(=O)(=O)c1cc(C)c(C)cc1C (stereo not shown) | human monocytes | phagocytosis of anti-D RBCs | 5 µM, lab-synthesized sample | – | inhibition | 33.3 ± 6.4% |
| C#CCCCC(F)/C=C/C(=O)NC1(c2ccc(-c3nc4ccn5c(=O)[nH]nc5c4cc3-c3ccccc3)cc2)CCC1 (stereo not shown) | MDA-MB-468 | cell viability | – | – | EC60 | 3.2 µM |
| O=C(C[Se]C(=O)c1ccccc1Nc1ccccc1)Nc1cccc(C(F)(F)F)c1 | NCI60 colon subpanel | cell growth | 10 µM, 48 h, one-dose | – | mean growth percent | -30.3% |
| COc1cccc(OC)c1-c1cc(C(=O)NC2(C(=O)O)C3CC4CC(C3)CC2C4)nn1-c1ccc(C(=O)N(C)CCCN(C)CCCN(C)C(=O)[C@H](CCCCNC(=O)[C@H](CC(C)C)NC(=O)C2OC2C(=O)O)NC(=O)CN2CCN(CC(=O)[O-])CCN(CC(=O)[O-])CCN(CC(=O)[O-])CC2)cc1C(C)C.[177Lu+3] (mixture of isomers) | HT-29 | – | concentration not given, 30 min | baseline: added activity | surface-bound fraction | 3.91 ± 0.21% |
| CCN(CC)CCNC(=S)Nc1ccc2nc(N3CCN(CC)CC3)cc(C)c2c1 | U2OS HDR-GFP reporter | homology-directed repair, flow cytometry | 10 µM | – | GFP-positive cells | 6.68% |
| CNS(=O)(=O)Nc1nccc(Cc2c(C)c3ccc(Oc4ncccc4F)cc3oc2=O)c1F | Raji | cell viability | 7 days | – | IC50 | > 1 µM |
| Cn1c(-c2ccc(F)cc2)n[nH]c1=S | C2C12 CELF1-overexpressing cells | myogenic differentiation, MF20 immunostaining | 10 µM, day 6 | – | myotube area | increased |
| Fc1cncc(-c2ccc3[nH]c4ncnc(N[C@H]5CC[C@H](N6CCOCC6)CC5)c4c3c2)c1 | TMD8 | immunoblot | 10 µM, 24 h | – | IRAK4 phosphorylation | inhibited |
| CNC(=O)CCN(Cc1ccc(C(F)F)cc1)C(=O)c1cc2c(OC)ccc(-c3ccc(=O)n(C)c3)c2s1 | murine AML cells | BRD4 chromatin occupancy, ChIP-seq, refers to: BRD4 peak | concentration not given, chrX:93416871-93424332 | baseline: DMSO, higher = more occupancy | BRD4 ChIP-seq tag count | 22.4 a.u. |
| O=C(C[Se]C(=O)c1ccc2ccccc2c1)Nc1cccc(C(F)(F)F)c1 | NCI60 colon subpanel | NCI60 five-dose screen | – | – | GI50 | 2.86 µM |
| C=CC(=O)N1[C@H](c2ccc3c(c2)OCO3)c2[nH]c3ccccc3c2C[C@@H]1C(=O)NC1CC1 | rat DRG neurons | – | 3.333 µM, 48 h, added: vincristine 40 nM | – | mean neuron degeneration | 18.7% |
| CC(C)c1ccc(N(C)c2ccc3c(c2)OCC[C@H]3CNc2cnccc2C(=O)O)cc1 | NCI-H596 | cell growth or viability, ATP luminescence | 7 days | – | IC50 | ≥ 10 µM |

| SMILES | cell line | assay | setting | scale | quantity | value |
| --- | --- | --- | --- | --- | --- | --- |
| O=S1(=O)CC2CCCCC2CS1 (stereo not shown) | MDA-MB-468 | MTT | 6.25 µM, 72 h | – | viability | 5.34% |
| Cn1c(=O)n(C2CCC(=O)NC2=O)c2ccc(C3CCN(CC(=O)Nc4cccc(CS(=O)(=O)N5CC[C@H](Nc6cccc(-c7sc(C(=O)O)c(OCC(=O)O)c7Cl)c6)CC5(C)C)c4)CC3)cc21 (stereo partly shown) | B16-F10 | HTRF, refers to: phospho-STAT1 Tyr701 | 0.005 µM, added: IFN-γ | baseline: DMSO | fold change | 1.19 and 1.17 and 1.18 and 1.12 |
| CC(C)n1nc(C(F)F)cc1C(=O)Nc1ccc([C@H]2[C@@H](O)CCCc3cncn32)c(-c2ccccc2)c1 | BRD4-HiBiT cells | BRD4 degradation rescue, inhibitor | 2 h, added: dBET6 500 nM | – | EC50 | 0.0622 µM |
| COc1ccccc1-c1ccncc1C(=O)Nc1nnc(OCc2ccc(Cl)cc2)s1 | MDA-MB-436 BRCA1-mutant | – | 0.75 µM | baseline: vehicle control | colony survival | 57.1% and 53.2% and 51.9% |
| Cc1ncsc1-c1ccc(C(C)NC(=O)C2CC(O)CN2C(=O)C(NC(=O)CCCCCCCCCCN2CCCC(Nc3ncc(Cl)c(Nc4ccccc4S(=O)(=O)C(C)C)n3)C2)C(C)(C)C)cc1 (stereo not shown) | 22Rv1 | RNA-seq, refers to: PRKAB1 mRNA | concentration not given | baseline: DMSO | log2 fold change | -1.07 |
| CCN(CC)CC(=O)Nc1cccc(-n2cc(-c3ccc4ccc(-c5cn(-c6cccc(NC(=O)CN(CC)CC)c6)nn5)cc4c3)nn2)c1 | RCC4 | PCR angiogenesis array, refers to: THBS1 | 5 x IC50, 2 h, normoxia | baseline: untreated | fold regulation | 1.04 fold |
| CC(C)Cc1ccc(C(C)C(=O)[Se]CC(=O)Nc2cccc(C(F)(F)F)c2)cc1 (stereo not shown) | NCI60 colon subpanel | NCI60 five-dose screen | – | – | GI50 | 5.15 µM |
| CC(=O)N[C@@H](Cc1c[nH]c2ccccc12)C(=O)N[C@@H](CCC(=O)O)C(=O)N[C@@H](C)C(=O)N[C@@H](CC(=O)O)C(=O)COC(=O)c1c(C)cccc1C | THP-1 cells expressing FKBP-caspase-11 | pyroptosis, inhibitor | concentration not given, added: B/B dimerizer | – | LDH release | 26.2% and 25.5% and 24.9% |
| CN1CCCNC(=O)c2cccc(c2)C(=O)NCCCN(C)CCCNc2cccc3c2C(=O)c2cccc(c2C3=O)NCCC1 | SAS | RNA-Seq, refers to: BLCAP mRNA | 1 µM, 6 h | baseline: untreated cells | log2 fold change | -0.484 |
| O=C(C[Se]C(=O)c1ccc2ccccc2n1)Nc1cccc(C(F)(F)F)c1 | NCI60 colon subpanel | NCI60 five-dose screen | – | – | mean TGI | 11.3 µM |
| COC(=O)c1cc(NC2=NC(=O)C(=Cc3ccc(N(C)C)cc3)S2)ccc1OC(C)=O | MCF7 | GC-MS, refers to: L-Methionine | 1 µM | baseline: DMSO | metabolite level | -0.26 fold change |
| CCOc1cncc(-c2ccc(NC(=O)C3(c4ccnc(NS(=O)(=O)C5CC5)n4)CCOCC3)nc2)n1 | SK-N-AS | cell growth or viability, ATP luminescence | 72 h | – | IC50 | 0.041 µM |
| CCn1nc(Cl)c2c1-c1cnc(N)c(c1)O[C@H](C)c1cc(F)ccc1-c1nn(C)cc1C2 | Ba/F3 EML4-ALK v1 | cell viability | – | – | Hill slope | 2.13 |
| O=C(O)C1OC(Oc2ccc3oc(-c4ccc(O)cc4)c(O)c(=O)c3c2)C(O)C(O)C1O (stereo not shown) | MDCKII-UGT1A1/MRP2 cells | glucuronide efflux, substrate | – | – | Jmax | 2.7 ± 0.27 pmol/mg/min |
| CCN(C(=O)c1cc(F)ccc1Oc1nncnc1N1CCC2(C1)CN([C@H](CCCN(C)CCOC)C(C)C)C2)C(C)C | EFO-21 | cell growth or viability | 72 h | – | GI50 | > 10 µM |
| CO[C@@H]1[C@@H](OC(N)=O)[C@@H](O)[C@H](Oc2ccc3c(O)c(NC(=O)c4ccc(O)c(CC=C(C)C)c4)c(=O)oc3c2C)OC1(C)C | HCT-116 parental | – | 150 µM | baseline: untreated | colony survival | 79.2% |
| COc1ncccc1CN(C(=O)OCc1ccc([N+](=O)[O-])cc1F)[C@H]1C[C@@H]1c1ccccc1 (racemic) | THP-1 cells expressing NTR | MTS | 72 h | – | GI50 | 6 ± 0.7 µM |
| COc1cc(C(=O)N2CC[C@@H](O)[C@@H](N)C2)cc2nc(-c3cc4cccnc4n3CC3CC3)n(C)c12 | human neutrophils | protein citrullination, inhibitor, flow cytometry, refers to: citrullinated histone H3 | 3.16 µM, added: ionomycin | – | inhibition | 81.6% and 58.3% and 79.3% and 72.2% |

Excerpt of the above:
| SMILES | cell line | assay | setting | scale | quantity | value |
| --- | --- | --- | --- | --- | --- | --- |
| CCN(C(=O)c1cc(F)ccc1Oc1nncnc1N1CCC2(C1)CN([C@H](CCCN(C)CCOC)C(C)C)C2)C(C)C | EFO-21 | cell growth or viability | 72 h | – | GI50 | > 10 µM |
| CO[C@@H]1[C@@H](OC(N)=O)[C@@H](O)[C@H](Oc2ccc3c(O)c(NC(=O)c4ccc(O)c(CC=C(C)C)c4)c(=O)oc3c2C)OC1(C)C | HCT-116 parental | – | 150 µM | baseline: untreated | colony survival | 79.2% |
| COc1ncccc1CN(C(=O)OCc1ccc([N+](=O)[O-])cc1F)[C@H]1C[C@@H]1c1ccccc1 (racemic) | THP-1 cells expressing NTR | MTS | 72 h | – | GI50 | 6 ± 0.7 µM |
